{"data": "Measured values gathered from unrelated publications", "note": "Parts stem from different laboratories: compare values within a part only. Substitutions count along the parent as printed."}
{"data": "Study 1", "target": "Ras GTPase-activating protein-binding protein 1, RRM domain (G3BP1, Homo sapiens, UniProt Q13283)", "technique": "RNA Bind-n-Seq", "form": "RNA", "sample": "in vitro", "tested at": "1 µM", "notes": "whole 134-nt RNA, ends assumed", "with": "150 mM KCl", "reference": "input library", "reading": "higher = stronger binding", "all sequences stand within": "GGGAGUUCUACAGUCCGACGAUC … UGGAAUUCUCGGGUGUCAAGG", "sequence of UniProt Q13283 (whole entry, looked up)": "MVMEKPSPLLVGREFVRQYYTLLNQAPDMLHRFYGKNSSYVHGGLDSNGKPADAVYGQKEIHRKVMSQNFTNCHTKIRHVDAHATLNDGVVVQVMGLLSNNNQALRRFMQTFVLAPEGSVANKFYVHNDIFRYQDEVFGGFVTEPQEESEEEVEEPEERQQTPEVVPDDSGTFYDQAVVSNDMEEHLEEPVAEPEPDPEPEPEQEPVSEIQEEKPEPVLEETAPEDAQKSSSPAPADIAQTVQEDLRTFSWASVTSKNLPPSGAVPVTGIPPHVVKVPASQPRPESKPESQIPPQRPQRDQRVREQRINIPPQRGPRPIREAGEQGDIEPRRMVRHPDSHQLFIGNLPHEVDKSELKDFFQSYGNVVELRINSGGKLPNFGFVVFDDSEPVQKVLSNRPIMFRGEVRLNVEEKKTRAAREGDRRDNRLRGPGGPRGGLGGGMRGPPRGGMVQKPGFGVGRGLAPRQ"}
{"Oligonucleotide": "ACCAUGCAGGUGGGAAUCUUUGGGAAGUGGGGCAAGGGGGGGAUAGGGAGGGGGGUAACACUUUGGGAACAGGUGGUCCCAGGUCGUUUC", "log2 enrichment": -0.457}
{"Oligonucleotide": "UCAAGUCCUGUGCUACACAUCGUAUGUACCGAAUCGGGUGGGUUUGGGAAAGGGAAAGUAUUAUGUUACGCCGUUCGGAUCUGCACUUCC", "log2 enrichment": 0.697}
{"Oligonucleotide": "GCAGGAAGUAAAAACAAAUGGAAAUGCUUCGGAUAGUGGCAGGGGUGGGGGUUGCUAAGGAAAGGGUGGGAUGGGAGUGGGUAAACAGUU", "log2 enrichment": 0.46}
{"Oligonucleotide": "UCCUGUGCUACACAUCGUAUGUACCGAAUCGGGAAAGGGUUUUUUUGGGAAAAAAAGGGAAAGUAUUAUGUUACGCCGUUCGGAUCUGCA", "log2 enrichment": -0.117}
{"Oligonucleotide": "UGGGAGGUGGAUUUUGUUUAUUUUUUUAGCUCAUUUCCAGGGGUGGGAAGUUUUUUUUAAUAUGUGUCAUGAAUAAAGUUGUUUUUGAAA", "log2 enrichment": 2.39}
{"Oligonucleotide": "CUCAAGUCCUGUGCUACACAUCGUAUGUACCGAAUCGGAGGAAAAAGGAAAGGAAAGUAUUAUGUUACGCCGUUCGGAUCUGCACUUCCA", "log2 enrichment": -0.108}
{"Oligonucleotide": "AGUCCUGUGCUACACAUCGUAUGUACCGAAUCGGGGUUUUGGGGUUUUGGGGUUUUGGAAAGUAUUAUGUUACGCCGUUCGGAUCUGCAC", "log2 enrichment": -0.226}
{"Oligonucleotide": "CCUGUGCUACACAUCGUAUGUACCGAAUCGGGGUUUUUUUGGGGAAAAAGGGGAAAGGGGAAAGUAUUAUGUUACGCCGUUCGGAUCUGC", "log2 enrichment": 0.158}
{"Oligonucleotide": "ACCAUGCAGGUGGGCAUCUUUGGGAAAUGGGGCAAGGGGGGGAUAGGGAGGGGGGUAACACUUUGGGAACAGGUGGUCCCAGGUCGUUUC", "log2 enrichment": -0.333}
{"Oligonucleotide": "CUCAAGUCCUGUGCUACACAUCGUAUGUACCGAAUCGGGGUGGGGUGGUGGGGAAAGUAUUAUGUUACGCCGUUCGGAUCUGCACUUCCA", "log2 enrichment": 0.246}
{"Oligonucleotide": "UGGGCUGGAUGGCUCAGUUCCCCCAGACCUGGACUGGAAGGGCCAGCCACCUGCACCUCCUAAAAAGGGACUGCUGCAGAGACUCUUCAG", "log2 enrichment": -0.423}
{"Oligonucleotide": "CAAGUCCUGUGCUACACAUCGUAUGUACCGAAUCGGGUUUUUGGGAGGGUUUGGGAAAGUAUUAUGUUACGCCGUUCGGAUCUGCACUUC", "log2 enrichment": 0.567}
{"Oligonucleotide": "UCAAGUCCUGUGCUACACAUCGUAUGUACCGAAUCGGUUUGGUUUUUUUGGAGGAAAGUAUUAUGUUACGCCGUUCGGAUCUGCACUUCC", "log2 enrichment": -0.154}
{"Oligonucleotide": "CCUGUGCUACACAUCGUAUGUACCGAAUCGGGGAAAAAAAGGAAAAAAAGGAAAAAAAGGGAAAGUAUUAUGUUACGCCGUUCGGAUCUG", "log2 enrichment": 0.101}
{"data": "Study 2", "target": "CCNB2, cyclin fold, Cln2 fusion (human)", "technique": "yeast growth competition, sequencing", "sample": "yeast", "notes": "weak parent motif", "reference": "not given", "reading": "higher = stronger binding", "starting sequence": "WEE2 docking peptide (human); KELRQKLNFSYCE"}
{"Substitution": "KELAQKLNFSYCE [R4A]", "normalised enrichment score": -0.118}
{"Substitution": "KELRQKANFSYCE [L7A]", "normalised enrichment score": 0.265}
{"Substitution": "KELRAKLNFSYCE [Q5A]", "normalised enrichment score": 0.193}
{"Substitution": "KELRQKLNASYCE [F9A]", "normalised enrichment score": 0.149}
{"Substitution": "KEARQKLNFSYCE [L3A]", "normalised enrichment score": -0.307}
{"Substitution": "KELRQKLNFSYCA [E13A]", "normalised enrichment score": 0.582}
{"data": "Study 3", "target": "ABI1, truncated, D143A, DHFR fusion (Arabidopsis thaliana)", "technique": "DHFR PCA, deep sequencing", "sample": "yeast", "notes": "methotrexate growth selection, single substitutions", "with": "(+)-ABA 4.8 µM", "reference": "wild-type fitted maximum", "reading": "higher = stronger binding", "starting sequence": "PYL1, truncated, DHFR fusion (Arabidopsis thaliana); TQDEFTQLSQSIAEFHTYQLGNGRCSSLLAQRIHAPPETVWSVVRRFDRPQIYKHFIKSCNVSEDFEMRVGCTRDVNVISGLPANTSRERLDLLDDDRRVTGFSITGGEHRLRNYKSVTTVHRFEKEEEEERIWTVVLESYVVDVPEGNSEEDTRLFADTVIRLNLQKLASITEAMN; partner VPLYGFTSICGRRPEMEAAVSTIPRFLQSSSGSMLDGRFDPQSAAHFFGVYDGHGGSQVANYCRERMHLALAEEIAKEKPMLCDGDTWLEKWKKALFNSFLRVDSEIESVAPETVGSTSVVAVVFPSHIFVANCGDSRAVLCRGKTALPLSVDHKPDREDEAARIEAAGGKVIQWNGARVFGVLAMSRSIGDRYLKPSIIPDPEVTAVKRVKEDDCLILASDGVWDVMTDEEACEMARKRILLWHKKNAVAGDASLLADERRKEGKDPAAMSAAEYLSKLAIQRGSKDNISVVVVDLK"}
{"Substitution": "V62R", "relative binding score": "-1.04%"}
{"Substitution": "S26F", "relative binding score": "40.8%"}
{"Substitution": "T1Y", "relative binding score": "73.8%"}
{"Substitution": "M176H", "relative binding score": "52.3%"}
{"Substitution": "V137K", "relative binding score": "-29.2%"}
{"Substitution": "C25V", "relative binding score": "78.8%"}
{"Substitution": "S42I", "relative binding score": "13.9%"}
{"Substitution": "T17A", "relative binding score": "38.1%"}
{"Substitution": "I57V", "relative binding score": "69.5%"}
{"Substitution": "E89T", "relative binding score": "-6.49%"}
{"Substitution": "Q31M", "relative binding score": "23.1%"}
{"Substitution": "R49H", "relative binding score": "54.8%"}
{"Substitution": "W41Y", "relative binding score": "-16.1%"}
{"Substitution": "L166T", "relative binding score": "-1.25%"}
{"Substitution": "Q167D", "relative binding score": "23.3%"}
{"data": "Single results of other studies"}
{"Molecule": "PhoQ, residues 284 288 289 292 302 303 SIHMAM", "target": "PhoP, residues 12 14 15 18 19 NFCKL (Escherichia coli, UniProt P23836)", "test": "Sort-seq, item: YFP reporter", "test system": "E. coli", "conditions": "PhoQ-PhoP variant library, with: 10 µM Mg2+", "how to read": "reference: high Mg2+ state, higher = stronger signaling", "endpoint": "fold induction", "result": 11.5}
{"note": "Some of these lines once more (study 3):"}
{"Substitution": "T17A", "relative binding score": "38.1%"}
{"Substitution": "M176H", "relative binding score": "52.3%"}
{"Substitution": "S26F", "relative binding score": "40.8%"}
{"Substitution": "R49H", "relative binding score": "54.8%"}
